Measurements from different studies.
Protocols differ between the studies behind these lines. Several values in a cell are separate wells, animals, samples, runs or records. ± marks the error that the study gave.
UCHL1: Ubiquitin carboxyl-terminal hydrolase isozyme L1 (UCHL1, Homo sapiens, UniProt P09936)
Sequence of UniProt P09936 (whole entry, looked up): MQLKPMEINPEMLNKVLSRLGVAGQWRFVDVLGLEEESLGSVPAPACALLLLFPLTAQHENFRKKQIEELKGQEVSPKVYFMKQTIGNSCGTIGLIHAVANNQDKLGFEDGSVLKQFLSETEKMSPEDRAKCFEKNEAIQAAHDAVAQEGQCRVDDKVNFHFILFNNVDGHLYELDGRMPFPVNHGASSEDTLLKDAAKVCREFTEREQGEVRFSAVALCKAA
Histone acetyltransferase RTT109 with Vps75: Histone acetyltransferase RTT109, with Vps75 (Saccharomyces cerevisiae, UniProt Q07794)
Sequence of UniProt Q07794 (whole entry, looked up): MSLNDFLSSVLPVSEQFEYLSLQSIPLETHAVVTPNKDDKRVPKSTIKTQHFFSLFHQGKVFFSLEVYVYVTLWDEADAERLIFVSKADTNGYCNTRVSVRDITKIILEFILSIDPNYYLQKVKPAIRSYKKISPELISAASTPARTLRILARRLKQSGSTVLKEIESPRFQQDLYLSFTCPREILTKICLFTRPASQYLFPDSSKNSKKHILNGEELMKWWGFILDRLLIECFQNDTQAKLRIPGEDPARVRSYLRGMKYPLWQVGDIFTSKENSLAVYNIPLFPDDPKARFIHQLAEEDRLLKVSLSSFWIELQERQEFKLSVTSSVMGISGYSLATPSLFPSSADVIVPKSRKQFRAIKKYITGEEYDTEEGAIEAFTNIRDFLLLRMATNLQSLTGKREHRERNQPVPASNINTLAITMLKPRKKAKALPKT

SMILES	target or system	test	system	conditions	how to read	endpoint	result
CC(C)Cc1ccc([C@@H](C)[C@H](O)CC(C)C)cc1 (racemic)	HepG2			250 µM, 48 h		cells killed	94%
CCOC(=O)c1nn(-c2cccc(Cl)c2)/c(=N/N=C(\C)c2ccc(NC(=O)c3ccc(Cl)cc3)cc2)s1	HepG2	MTT		1.25 µM		cytotoxicity	97.4%
COc1ccc(NC(=O)c2c(Nc3ccccc3)sc(C#N)c2NC(=O)CNc2ccc(Cl)cc2)cc1	HepG2	flow cytometry		IC50, 24 h		cells in S phase	33.5 ± 4.32%
CCOC(=O)/C=C\C(=O)OCC	HepG2	high content imaging, item: nuclei count		24 h, expected PoD		point of departure	28.6 µM
Nc1ccn([C@H]2CC[C@@H](CO)O2)c(=O)n1	HepG2	qPCR		2 µM, 10 days	reference: untreated control	mitochondrial DNA content	56.5 ± 10.5%
CCn1cc(-c2cc(Cn3ccnc3)cc3c2CCN([C@H](c2cc(OC)ccn2)C2CC2)C3=O)c(C(F)(F)F)n1	HepG2	cell growth, inhibitor		120 h		EC50	7.52 µM
Cc1nc2ccccc2n(CC(=O)Nc2ccc(C(=O)Nc3cccc(Cl)c3)cc2)c1=O	HepG2	Annexin V-FITC/PI staining		2.3 µM		viable cells	63.5 ± 3.18%
CN1C(=O)C(=O)c2cc3c(c4c2c1cc1ccccc14)OCO3	HepG2	cytotoxicity, MTT		50 µg/mL, 48 h		inhibition	< 50%
CC(=NN=C1SC(C)C(=O)N1C)c1c(O)c2ccccc2oc1=O (stereo not drawn)	HepG2	cell growth, MTT			reference: IC50 BJ-1 over HepG2	selectivity index	> 1.49
CC(C)(C)c1cc(O)ccc1O	HepG2	extracellular flux, item: oxygen consumption rate		24 h, distribution mode 1		point of departure	0.0219 µM
CCOC(=O)c1cccc(NC(=O)c2sccc2S(=O)(=O)N(C)c2ccc(OCC)cc2)c1	HepG2	SRE promoter reporter		concentration not given		activity	inactive
CCN1C(=O)C(C)SC1=NN=C(C)c1c(O)c2ccccc2oc1=O (stereo not drawn)	HepG2	cell growth, MTT			reference: IC50 BJ-1 over HepG2	selectivity index	> 1.25
CNC(=O)c1cc(Oc2ccc(NC(=O)Nc3ccc(Cl)c(C(F)(F)F)c3)cc2)ccn1	HepG2	mitochondrial membrane potential		5 to 25 µM, 24 h		MitoTracker Red fluorescence loss	> 50%
CC(=O)c1nn(-c2ccc(Cl)cc2)/c(=N/N=C(\C)c2ccc(NC(=O)c3ccc(Cl)cc3)cc2)s1	HepG2			1.25 µM		toxicity	3.91%
O=C(NCCN1CCCC1)c1cc(-c2ccc(CN3CCOCC3)cc2)nc2ccc(F)cc12	HepG2	cytotoxicity, resazurin				EC50	41 µM
N#CC(=Cc1ccc2[nH]c(=O)[nH]c2c1)C(=O)NC1CCCC1	UCHL1	covalent, intact protein LC-MS		12.5 µM		labelling	8.2%
COc1ccccc1CN1CC(C(=O)NCCN(C)CCc2ccccc2)CCC1=O (stereo not drawn)	Trypanosoma cruzi	reporter translation, Renilla luciferase mRNA translation	cell-free extract	40 µM	reference: DMSO	inhibition	-13.4%
CCOC(=O)N1CCC(CN(Cc2ccc(Cl)cc2)Cc2ccc([N+](=O)[O-])s2)C1 (stereo not drawn)	HepG2	qPCR, item: BMAL1 mRNA		concentration not given	reference: REV-ERBα/β siRNA over control siRNA	decrease of effect	63%
O=C(O)Cc1ccccc1Nc1c(Cl)cccc1Cl	HepG2	high content imaging, item: nuclear size		24 h, representative mode		point of departure	209 µM and 138 µM
CC(C)C[C@H](NC(=O)C[C@H](O)[C@H](CC(C)C)NC(=O)[C@H](Cc1c[nH]cn1)NC(=O)CNC(=O)[C@@H](NC(=O)[C@H](C)NC(=O)[C@H](Cc1c[nH]c2ccccc12)NC(=O)[C@H](CCC(N)=O)NC(=O)[C@@H](Cc1ccccc1)NC(=O)COCCOCCNC(=O)CN1CCN(CC(=O)O)CCN(CC(=O)O)CCN(CC(=O)O)CC1)C(C)C)C(N)=O [lutetium-177 labelled]			BALB/c nu/nu mice, female, carcass incl. GI tract contents	intravenous, 50 pmol, 1 h		tissue uptake	2.9 ± 0.7 %ID
O=C(COP(=O)(O)O)[C@@H](O)[C@H](O)[C@H](O)COP(=O)(O)O	HepG2	LC-MS/MS		concentration not given	reference: 2-PG over 3-PG	2-PG/3-PG ratio	0.419 and 0.369 and 0.342
COc1ccc(NC(=O)c2c(Nc3ccccc3)sc(C(=O)NN=Cc3ccc(OC)c(O)c3)c2NC(C)=O)cc1	HepG2	annexin V-FITC/PI		concentration not given		late apoptotic cells	7.02 ± 0.81%
COc1ccc2c(c1)C(=O)C(=O)N2CCn1cnc2c(N)ncnc21	HepG2	cell growth, SRB		72 h		IC50	26.2 ± 3.4 µg/mL

SMILES	target or system	test	system	conditions	how to read	endpoint	result
CC(=O)c1nn(-c2ccc(C)cc2)/c(=N/N=C(\C)c2ccc(NC(=O)c3ccccc3)cc2)s1	HepG2	MTT		1.25 µM		cytotoxicity	94.1%
CCOC(=O)[C@H](Cc1ccccc1)NC(=O)c1cc(Cl)c(OCCN2CCN(C)CC2)c(Cl)c1O.Cl.Cl	HepG2	PAS-seq		20 µM, 4 h, distal to proximal		genes shifted to proximal PAS	847 genes
CC(=O)c1nn(-c2ccccc2Cl)/c(=N/N=C(\C)c2ccc(NC(=O)c3ccccc3)cc2)s1	HepG2	MTT		0.625 µM		cytotoxicity	94.1%
CC(=O)c1nn(-c2ccc(Cl)cc2)/c(=N/N=C(\C)c2ccc(NC(=O)c3ccc(C)cc3)cc2)s1	HepG2			2.5 µM		viability	2.82%
CC(=O)c1sc(=NN=C(C)c2c(O)c3ccccc3oc2=O)n(C)c1C	HepG2	cell growth, MTT			reference: IC50 BJ-1 over HepG2	selectivity index	> 1.75
OC[C@H]1O[C@@H](Oc2c[nH]c3ccccc23)[C@H](O)[C@@H](O)[C@@H]1O	HepG2	cell viability, MTT		24 h		IC50	3.35 mM
CC(=NN=c1[nH]c(C)c(N=Nc2ccccc2)s1)c1c(O)c2ccccc2oc1=O	HepG2	cell growth, MTT			reference: IC50 BJ-1 over HepG2	selectivity index	> 1.4
Oc1ccccc1-c1nnc(S)o1	Histone acetyltransferase RTT109 with Vps75	enzyme activity, inhibitor, HTS, CPM-based, dose response				IC50	> 0.125 mM
COc1ccc(-n2nc(C(C)=O)s/c2=N\N=C(/C)c2ccc(NC(=O)c3ccccc3)cc2)cc1	HepG2			5 µM		viability	3.04%
COCC(=O)N1CCC[C@H](C(=O)NCc2nc(-c3ccc(-c4ccccc4)cc3)cs2)C1	HepG2	cytotoxicity				EC50	18 µM
Cc1cc(N(C)NC(=O)C(C)(C)C)nc(Cl)c1C#N	UCHL1	covalent, intact protein LC-MS		12.5 µM		labelling	14.6%
CN(CCOc1ccc(CC2SC(=O)NC2=O)cc1)c1ccccn1 (stereo not drawn)	HepG2	respiratory reserve capacity, extracellular flux		6 h		representative mode point of departure	1.2 µM
CCOC(=O)c1nn(-c2cccc(Cl)c2)/c(=N/N=C(\C)c2ccc(NC(=O)c3ccccc3)cc2)s1	HepG2	MTT		0.156 µM		cytotoxicity	74.1%
CCOC(=O)c1cccc(NC(=O)c2sc(Cl)cc2S(=O)(=O)N(C)c2ccc(OCC)c(OCC)c2)c1	HepG2	SRE promoter reporter, activator, luciferase reporter				EC50	1.5 µM
c1cnc2c(c1)ccc1cccnc12	HepG2			25 µg/mL		IL-4 mRNA level	decreased
O=C(Oc1ccc(NS(=O)(=O)c2ccccc2)cc1Br)c1ccccc1	Histone acetyltransferase RTT109 with Vps75	enzyme activity, inhibitor, HTS, CPM-based, dose response				IC50	> 0.125 mM
CCc1ccc(CCOc2ccc(CC3SC(=O)NC3=O)cc2)nc1 (stereo not drawn)	HepG2	MTT, item: MTT response		24 h, distribution mode 2		point of departure	46.8 µM
CC(=O)Nc1ccc(/C(C)=N/N=c2\sc(C(C)=O)nn2-c2ccc(C)cc2)cc1	HepG2	MTT		2.5 µM		cytotoxicity	0.59%
Nc1n[nH]c2nc(-c3cccc(O)c3)cc(-c3cc4ccccc4nc3N3CCOCC3)c12	HepG2	MTT			reference: WI-38 EC50 over HepG2 IC50	selectivity ratio	4.41
CCn1c(C)c(N=Nc2ccccc2)sc1=NN=C(C)c1c(O)c2ccccc2oc1=O	HepG2	cell growth, MTT			reference: IC50 BJ-1 over HepG2	selectivity index	> 1.64
Cc1ccc(SCCOCCN2CC(C)OC(C)C2)cc1.Cl (stereo not drawn)	Trypanosoma cruzi	reporter translation, Renilla luciferase mRNA translation	cell-free extract	40 µM	reference: DMSO	inhibition	-1.6%
CCOc1nc(-c2cccc(O)c2)cc(-c2cc3cc(Cl)ccc3nc2N2CCOCC2)c1C#N	HepG2	MTT			reference: WI-38 EC50 over HepG2 IC50	selectivity ratio	0.492

Excerpt of the above:
SMILES	target or system	test	system	conditions	how to read	endpoint	result
CC(C)Cc1ccc([C@@H](C)[C@H](O)CC(C)C)cc1 (racemic)	HepG2			250 µM, 48 h		cells killed	94%
CCOC(=O)c1nn(-c2cccc(Cl)c2)/c(=N/N=C(\C)c2ccc(NC(=O)c3ccc(Cl)cc3)cc2)s1	HepG2	MTT		1.25 µM		cytotoxicity	97.4%
COc1ccc(NC(=O)c2c(Nc3ccccc3)sc(C#N)c2NC(=O)CNc2ccc(Cl)cc2)cc1	HepG2	flow cytometry		IC50, 24 h		cells in S phase	33.5 ± 4.32%
CCOC(=O)/C=C\C(=O)OCC	HepG2	high content imaging, item: nuclei count		24 h, expected PoD		point of departure	28.6 µM
